Experimental data of several laboratories.
Protocols differ between the studies behind these lines. ± gives the spread as reported.

| Compound | test | test system | setting | tissue uptake |
| --- | --- | --- | --- | --- |
| CSCC[C@H](NC(=O)[C@H](CC(C)C)NC(=O)[C@H](Cc1c[nH]cn1)NC(=O)CNC(=O)[C@@H](NC(=O)[C@H](C)NC(=O)[C@H](Cc1c[nH]c2ccccc12)NC(=O)[C@H](CCC(N)=O)NC(=O)CNC(=O)[C@H](CO)NC(=O)CNC(=O)CCCCCCCNC(=O)CCC(=O)Nc1ccc(CNC23CNCCNCC(N)(CNCCNC2)CNCCNC3)cc1)C(C)C)C(N)=O [copper-64 labelled] |  | female SCID mice, PC-3 xenograft, bone | intravenous, 0.6 MBq, 24 h | 0.498 ± 0.04 %ID/g |
| N=C(N)NCCC[C@@H]1NC(=O)[C@H](CCCCNC(=O)CNC(=O)CNC(=O)CNC(=O)CC[C@H](NC(=O)CCOCCOCCOCCOCCNC(=O)CC[C@H](NC(=O)CN2CCN(CC(=O)O)CCN(CC(=O)O)CCN(CC(=O)O)CC2)C(=O)NCCOCCOCCOCCOCCC(=O)N[C@@H](CCC(=O)NCC(=O)NCC(=O)NCC(=O)NCCCC[C@@H]2NC(=O)[C@@H](Cc3ccccc3)NC(=O)[C@H](CC(=O)O)NC(=O)CNC(=O)[C@H](CCCNC(=N)N)NC2=O)C(=O)NCC(=O)NCC(=O)NCC(=O)NCCCC[C@@H]2NC(=O)[C@@H](Cc3ccccc3)NC(=O)[C@H](CC(=O)O)NC(=O)CNC(=O)[C@H](CCCNC(=N)N)NC2=O)C(=O)NCC(=O)NCC(=O)NCC(=O)NCCCC[C@@H]2NC(=O)[C@@H](Cc3ccccc3)NC(=O)[C@H](CC(=O)O)NC(=O)CNC(=O)[C@H](CCCNC(=N)N)NC2=O)NC(=O)[C@@H](Cc2ccccc2)NC(=O)[C@H](CC(=O)O)NC(=O)CNC1=O [indium-111 labelled] |  | athymic nude mice, female, U-87 MG glioma xenograft, U-87 MG tumour | intravenous, 3 µCi, 72 h | 2.66 ± 0.81 %ID/g |
| N=C(N)NCCC[C@@H]1NC(=O)[C@H](CCCCNC(=O)CCOCCOCCOCCOCCNC(=O)CC[C@H](NC(=O)[C@H](CCCCNC(=O)c2ccc(NN)nc2)NC(=O)c2ccc(NN)nc2)C(=O)NCCOCCOCCOCCOCCC(=O)NCCCC[C@@H]2NC(=O)[C@@H](Cc3ccccc3)NC(=O)[C@H](CC(=O)O)NC(=O)CNC(=O)[C@H](CCCNC(=N)N)NC2=O)NC(=O)[C@@H](Cc2ccccc2)NC(=O)[C@H](CC(=O)O)NC(=O)CNC1=O [technetium-99m labelled] |  | female athymic nude mice, muscle | intravenous, 0.1 MBq, 1 h, U-87 MG glioma xenograft | 1.1 ± 0.32 %ID/g |
| N=C(N)NCCC[C@@H]1NC(=O)[C@H](CCCCNC(=O)CCOCCOCCOCCOCCNC(=O)CC[C@H](NC(=O)CCOCCOCCOCCOCCNC(=O)CC[C@H](NC(=O)CN2CCN(CC(=O)O)CCN(CC(=O)O)CCN(CC(=O)O)CC2)C(=O)NCCOCCOCCOCCOCCC(=O)N[C@@H](CCC(=O)NCCOCCOCCOCCOCCC(=O)NCCCC[C@@H]2NC(=O)[C@@H](Cc3ccccc3)NC(=O)[C@H](CC(=O)O)NC(=O)CNC(=O)[C@H](CCCNC(=N)N)NC2=O)C(=O)NCCOCCOCCOCCOCCC(=O)NCCCC[C@@H]2NC(=O)[C@@H](Cc3ccccc3)NC(=O)[C@H](CC(=O)O)NC(=O)CNC(=O)[C@H](CCCNC(=N)N)NC2=O)C(=O)NCCOCCOCCOCCOCCC(=O)NCCCC[C@@H]2NC(=O)[C@@H](Cc3ccccc3)NC(=O)[C@H](CC(=O)O)NC(=O)CNC(=O)[C@H](CCCNC(=N)N)NC2=O)NC(=O)[C@@H](Cc2ccccc2)NC(=O)[C@H](CC(=O)O)NC(=O)CNC1=O [indium-111 labelled] |  | female athymic nude mice, lungs | intravenous, 3 µCi, 72 h, U-87 MG glioma xenograft | 0.66 ± 0.08 %ID/g |
| CSCC[C@H](NC(=O)[C@H](CC(=O)O)NC(=O)[C@H](CO)NC(=O)[C@H](Cc1c[nH]cn1)NC(=O)[C@H](Cc1c[nH]c2ccccc12)NC(=O)CN1CCN(CC(=O)O)CCN(CC(=O)O)CCN(CC(=O)O)CC1)C(=O)N[C@@H](CCC(=O)O)C(=O)N[C@@H](Cc1c[nH]c2ccccc12)C(=O)N[C@@H](Cc1c[nH]c2ccccc12)C(=O)N[C@@H](Cc1ccc(O)cc1)C(=O)N[C@@H](CC(C)C)C(=O)N[C@@H](CC(C)C)C(=O)NCC(=O)O [copper-64 labelled] | gamma counting | nude mice bearing BGC-823 tumours, BGC-823 tumour | intravenous, 0.74 MBq (0.02 nmol), 4 h | 0.55 %ID/g |
| N=C(N)NCCC[C@@H]1NC(=O)[C@H](CCCCNC(=O)CCOCCOCCOCCOCCNC(=O)CN2CCN(CC(=O)O)CCN(CC(=O)O)CCN(CC(=O)O)CC2)NC(=O)[C@@H](Cc2ccccc2)NC(=O)[C@H](CC(=O)O)NC(=O)CNC1=O [indium-111 labelled] |  | female athymic nude mice, muscle | intravenous, 3 µCi, 1 h, U-87 MG glioma xenograft | 0.38 ± 0.05 %ID/g |
| CC(C)[C@H](NC(=O)[C@H](C)N)C(=O)N[C@@H](CCCNC(=N)N)C(=O)N[C@H](C(=O)N[C@@H](CO)C(=O)N[C@@H](C)C(=O)N[C@@H](CC(=O)O)C(=O)NCCOCCOCCOCCOCCC(=O)N[C@@H](CCCCNC(=O)CN1CCN(CC(=O)O)CCN(CC(=O)O)CC1)C(=O)O)[C@@H](C)O [fluorine-18 labelled] | gamma counting | BALB/c nude mice, female, subcutaneous tumour, liver | intravenous, 3.7 MBq, 2 h | 1.39 ± 0.12 %ID/g |
| N=C(N)NCCC[C@@H]1NC(=O)[C@H](CC(=O)NC23CNCCNCC(N)(CNCCNC2)CNCCNC3)NC(=O)[C@@H](Cc2ccccc2)NC(=O)[C@H](CC(=O)O)NC(=O)CNC1=O [copper-64 labelled] |  | male nude tumour-bearing mice, kidney | iv, 10 µCi, 24 h | 2.36 ± 0.35 %ID/g |
| N=C(N)NCCC[C@@H]1NC(=O)[C@H](CCCCNC(=O)CCOCCOCCOCCOCCNC(=O)CC[C@H](NC(=O)CCOCCOCCOCCOCCNC(=O)c2ccc(NN)nc2)C(=O)NCCOCCOCCOCCOCCC(=O)NCCCC[C@@H]2NC(=O)[C@@H](Cc3ccccc3)NC(=O)[C@H](CC(=O)O)NC(=O)CNC(=O)[C@H](CCCNC(=N)N)NC2=O)NC(=O)[C@@H](Cc2ccccc2)NC(=O)[C@H](CC(=O)O)NC(=O)CNC1=O [technetium-99m labelled] |  | female athymic nude mice, U-87 MG glioma xenograft, intestine | intravenous, 2.5 µCi, 60 min | 5.25 ± 1.92 %ID/g |
| N=C(N)NCCC[C@@H]1NC(=O)[C@H](CCCCNC(=O)CC[C@H](NC(=O)CCOCCOCCOCCOCCNC(=O)CN2CCN(CC(=O)O)CCN(CC(=O)O)CCN(CC(=O)O)CC2)C(=O)NCCCC[C@@H]2NC(=O)[C@@H](Cc3ccccc3)NC(=O)[C@H](CC(=O)O)NC(=O)CNC(=O)[C@H](CCCNC(=N)N)NC2=O)NC(=O)[C@@H](Cc2ccccc2)NC(=O)[C@H](CC(=O)O)NC(=O)CNC1=O [indium-111 labelled] |  | female athymic nude mice, heart | intravenous, 3 µCi, 72 h, U-87 MG glioma xenograft | 0.14 ± 0.02 %ID/g |
| CC(C)C[C@H](NC(=O)[C@H](Cc1ccc(O)cc1)NC(=O)[C@@H](CCCNC(=N)N)NC(=O)[C@@H](CO)NC(=O)[C@H](Cc1ccccc1)NC(=O)[C@H](CC1CCCCC1)NC(=O)[C@H](CC(=O)O)NC(=O)CCC(C(=O)O)N1CCCN2CCN(CCCN(CC(=O)O)CC2)CC1)C(=O)N[C@@H](Cc1c[nH]c2ccccc12)C(=O)N[C@@H](CO)C(=O)O (some centres unmarked) [copper-64 labelled] |  | female NMRI nude mice, kidney | 22 h p.i. | 4.8 ± 0.7 %ID/g |
| CCCC[C@H](NC(=O)[C@H](Cc1cccs1)NC(=O)[C@H](Cc1c[nH]cn1)NC(=O)CCNC(=O)[C@@H](NC(=O)[C@H](C)NC(=O)[C@H](Cc1c[nH]c2ccccc12)NC(=O)[C@H](CCC(N)=O)NC(=O)[C@H](Cc1cccs1)NC(=O)CN1CCC(NC(=O)CN(CCN(CCN(CC(=O)O)CC(=O)O)CC(=O)O)CC(=O)O)CC1)C(C)C)C(N)=O [indium-111 labelled] |  | male Swiss nu/nu mice, PC-3 tumour, kidney | intravenous, 10 pmol, 4 h | 1.2 ± 0.4 %ID/g |
| CSCC[C@H](NC(=O)[C@H](CC(C)C)NC(=O)[C@H](Cc1c[nH]cn1)NC(=O)CNC(=O)[C@@H](NC(=O)[C@H](C)NC(=O)[C@H](Cc1c[nH]c2ccccc12)NC(=O)[C@H](CCC(N)=O)NC(=O)CCCCCCCNC(=O)CCC(=O)Nc1ccc(CNC23CNCCNCC(N)(CNCCNC2)CNCCNC3)cc1)C(C)C)C(N)=O [copper-64 labelled] |  | female SCID mice, PC-3 xenograft, liver | intravenous, 0.6 MBq, 1 h | 9.5 %ID/g |
| N=C(N)NCCC[C@@H]1NC(=O)[C@H](CCCCNC(=O)CC[C@H](NC(=O)[C@H](CCCCNC(=O)c2ccc(NN)nc2)NC(=O)c2ccc(NN)nc2)C(=O)NCCCC[C@@H]2NC(=O)[C@@H](Cc3ccccc3)NC(=O)[C@H](CC(=O)O)NC(=O)CNC(=O)[C@H](CCCNC(=N)N)NC2=O)NC(=O)[C@@H](Cc2ccccc2)NC(=O)[C@H](CC(=O)O)NC(=O)CNC1=O [technetium-99m labelled] |  | female athymic nude mice, lungs | intravenous, 0.1 MBq, 1 h, U-87 MG glioma xenograft | 2.7 ± 0.04 %ID/g |
